Assay results collected from several papers.
Parts stem from different laboratories: compare values within a part only. Positions count from the first letter of the parent shown.

Study 1
Target: ATF3, bZIP domain (human)
Technique: DHFR protein complementation
Sample: yeast
Notes: single substitutions, most at no-binding floor
Reference: wild-type JUN-FOS pair
Reading: higher = stronger binding
Endpoint: binding fitness
Starting sequence: JUN, bZIP domain (human); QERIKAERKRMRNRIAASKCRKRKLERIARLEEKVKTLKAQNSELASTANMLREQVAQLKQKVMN; partner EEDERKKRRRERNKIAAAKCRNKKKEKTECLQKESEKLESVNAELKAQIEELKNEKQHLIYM
Change = V35T; result = -0.512 natural log
Change = N42Y; result = -0.231 natural log
Change = N42T; result = -0.639 natural log
Change = L45P; result = -1.25 natural log
Change = E32L; result = -0.371 natural log
Change = E44C; result = -0.261 natural log
Change = A57Q; result = -0.231 natural log
Change = Q41V; result = -0.179 natural log

Study 2
Target: TAR DNA-binding protein 43, full length, His tag (TARDBP, Homo sapiens, UniProt Q13148, residues 1-414)
Technique: RNA Bind-n-Seq
Molecule type: RNA
Sample: in vitro
Tested at: 20 nM
Notes: 6-mer, flanks averaged, single round
With: 150 mM KCl
Reference: input library
Reading: higher = stronger binding
Endpoint: 6-mer enrichment (R)
Oligonucleotide = CUAACC; result = 0.572
Oligonucleotide = ACACAC; result = 0.667
Oligonucleotide = ACCAGC; result = 0.724
Oligonucleotide = CUACGC; result = 0.645
Oligonucleotide = AGCUGA; result = 0.783
Oligonucleotide = GUAGAA; result = 1.03
Oligonucleotide = UUGUUU; result = 0.745
Oligonucleotide = UAAAGC; result = 0.629

Study 3
Target: Probable WRKY transcription factor 33, N-terminal DNA-binding domain (WRKY33, Arabidopsis thaliana, UniProt Q8S8P5, residues 169-264)
Technique: DNA-protein interaction ELISA
Molecule type: double-stranded DNA, one strand shown
Sample: in vitro, bacterial lysate
Tested at: not given
Notes: whole dsDNA probe, crude lysate protein
Reference: highest signal in screen
Reading: higher = stronger binding
Endpoint: relative absorbance
Construct (chain): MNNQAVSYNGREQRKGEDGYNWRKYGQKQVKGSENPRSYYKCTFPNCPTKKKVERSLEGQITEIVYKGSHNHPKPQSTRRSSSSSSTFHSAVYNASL
Oligonucleotide = AAAAAAAGTTTGACCTTGGCGTTCGTAAAA; result = 74.4 % of maximum
Oligonucleotide = AAAAAACGGTAAGTCGACAAAA; result = 24.1 % of maximum
Oligonucleotide = AAAAAATCATTTTATTTTGCCTTTCTAAAA; result = 23.7 % of maximum
Oligonucleotide = AAAAAAGGTAGTCACATTACGAGGGTAAAA; result = 16.5 % of maximum
Oligonucleotide = AAAAAAGAGTGGTTTATTAATGTATAAAAA; result = 22.1 % of maximum
Oligonucleotide = AAAAAATACTCTTCCTCGTTCTTGGTAAAA; result = 20.4 % of maximum
Oligonucleotide = AAAAAACAGTTCGATGTCACCCCCGCAAAA; result = 35.2 % of maximum
Oligonucleotide = AAAAAACCGATCATCACATATCACTGAAAA; result = 21.3 % of maximum

Further values, each from its own experiment
Starting sequence: viral docking peptide; KKVKRRLFETREL
Change = KAVKRRLFETREL [K2A]; target = CCNF, cyclin fold, Cln2 fusion (human); test = yeast growth competition, sequencing; test system = yeast; conditions = strong parent motif; how to read = reference: not given, higher = stronger binding; endpoint = normalised enrichment score; result = 7.25

For quick reference, copied from above (study 3):
Oligonucleotide = AAAAAACGGTAAGTCGACAAAA; result = 24.1 % of maximum
Oligonucleotide = AAAAAAGGTAGTCACATTACGAGGGTAAAA; result = 16.5 % of maximum
